Results pooled from the literature.
Parts stem from different laboratories: compare values within a part only. Values joined by “and” are separate records of one study, mostly repeats; a detail may differ.
UniProt P51956, sequence (whole entry, looked up): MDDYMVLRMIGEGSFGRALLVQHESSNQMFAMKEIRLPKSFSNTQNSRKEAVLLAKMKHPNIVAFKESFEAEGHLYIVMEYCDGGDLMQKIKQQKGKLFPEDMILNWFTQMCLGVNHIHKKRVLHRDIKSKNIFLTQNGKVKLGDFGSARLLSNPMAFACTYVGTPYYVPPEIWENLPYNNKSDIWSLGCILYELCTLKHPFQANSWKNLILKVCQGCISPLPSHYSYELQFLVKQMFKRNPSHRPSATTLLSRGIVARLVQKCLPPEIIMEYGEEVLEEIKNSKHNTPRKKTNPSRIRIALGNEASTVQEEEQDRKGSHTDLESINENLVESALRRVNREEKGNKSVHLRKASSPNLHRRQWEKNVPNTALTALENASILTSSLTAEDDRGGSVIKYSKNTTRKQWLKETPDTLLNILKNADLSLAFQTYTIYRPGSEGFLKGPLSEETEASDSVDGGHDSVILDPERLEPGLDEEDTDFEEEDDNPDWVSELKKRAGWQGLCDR
UniProt Q16539, sequence (whole entry, looked up): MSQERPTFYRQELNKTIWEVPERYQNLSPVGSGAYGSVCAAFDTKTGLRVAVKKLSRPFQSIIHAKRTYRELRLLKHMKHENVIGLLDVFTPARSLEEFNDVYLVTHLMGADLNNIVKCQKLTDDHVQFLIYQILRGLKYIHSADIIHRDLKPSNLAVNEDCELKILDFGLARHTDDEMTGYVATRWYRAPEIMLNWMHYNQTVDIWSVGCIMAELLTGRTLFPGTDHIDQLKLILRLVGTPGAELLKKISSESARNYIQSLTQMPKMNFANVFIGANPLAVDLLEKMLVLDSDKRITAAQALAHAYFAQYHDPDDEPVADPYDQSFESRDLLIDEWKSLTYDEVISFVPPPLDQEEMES
UniProt P42681, sequence (whole entry, looked up): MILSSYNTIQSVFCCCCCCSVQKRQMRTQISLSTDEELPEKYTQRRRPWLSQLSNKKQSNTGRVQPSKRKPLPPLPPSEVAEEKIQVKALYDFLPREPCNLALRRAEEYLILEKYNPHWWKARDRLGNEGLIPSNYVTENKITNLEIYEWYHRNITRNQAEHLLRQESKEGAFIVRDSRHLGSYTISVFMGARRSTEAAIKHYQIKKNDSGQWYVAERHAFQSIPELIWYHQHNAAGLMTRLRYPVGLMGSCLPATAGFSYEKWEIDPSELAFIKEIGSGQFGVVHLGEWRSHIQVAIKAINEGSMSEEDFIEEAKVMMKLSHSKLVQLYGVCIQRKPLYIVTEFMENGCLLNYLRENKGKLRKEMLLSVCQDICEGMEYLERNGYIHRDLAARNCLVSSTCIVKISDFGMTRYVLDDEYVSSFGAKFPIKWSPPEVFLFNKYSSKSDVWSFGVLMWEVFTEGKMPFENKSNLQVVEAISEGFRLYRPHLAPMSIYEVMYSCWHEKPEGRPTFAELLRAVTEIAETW
UniProt P28482, sequence (whole entry, looked up): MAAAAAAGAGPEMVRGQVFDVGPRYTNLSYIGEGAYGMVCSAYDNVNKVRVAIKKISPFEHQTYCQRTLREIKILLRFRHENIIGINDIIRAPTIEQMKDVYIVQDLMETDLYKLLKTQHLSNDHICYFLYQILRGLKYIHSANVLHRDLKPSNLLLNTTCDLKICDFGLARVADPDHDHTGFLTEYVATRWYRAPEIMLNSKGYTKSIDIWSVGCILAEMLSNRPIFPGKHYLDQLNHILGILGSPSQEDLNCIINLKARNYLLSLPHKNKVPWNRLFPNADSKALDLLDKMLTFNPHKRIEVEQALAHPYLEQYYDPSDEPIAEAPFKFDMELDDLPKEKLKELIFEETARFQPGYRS
UniProt Q9UKE5, sequence (whole entry, looked up): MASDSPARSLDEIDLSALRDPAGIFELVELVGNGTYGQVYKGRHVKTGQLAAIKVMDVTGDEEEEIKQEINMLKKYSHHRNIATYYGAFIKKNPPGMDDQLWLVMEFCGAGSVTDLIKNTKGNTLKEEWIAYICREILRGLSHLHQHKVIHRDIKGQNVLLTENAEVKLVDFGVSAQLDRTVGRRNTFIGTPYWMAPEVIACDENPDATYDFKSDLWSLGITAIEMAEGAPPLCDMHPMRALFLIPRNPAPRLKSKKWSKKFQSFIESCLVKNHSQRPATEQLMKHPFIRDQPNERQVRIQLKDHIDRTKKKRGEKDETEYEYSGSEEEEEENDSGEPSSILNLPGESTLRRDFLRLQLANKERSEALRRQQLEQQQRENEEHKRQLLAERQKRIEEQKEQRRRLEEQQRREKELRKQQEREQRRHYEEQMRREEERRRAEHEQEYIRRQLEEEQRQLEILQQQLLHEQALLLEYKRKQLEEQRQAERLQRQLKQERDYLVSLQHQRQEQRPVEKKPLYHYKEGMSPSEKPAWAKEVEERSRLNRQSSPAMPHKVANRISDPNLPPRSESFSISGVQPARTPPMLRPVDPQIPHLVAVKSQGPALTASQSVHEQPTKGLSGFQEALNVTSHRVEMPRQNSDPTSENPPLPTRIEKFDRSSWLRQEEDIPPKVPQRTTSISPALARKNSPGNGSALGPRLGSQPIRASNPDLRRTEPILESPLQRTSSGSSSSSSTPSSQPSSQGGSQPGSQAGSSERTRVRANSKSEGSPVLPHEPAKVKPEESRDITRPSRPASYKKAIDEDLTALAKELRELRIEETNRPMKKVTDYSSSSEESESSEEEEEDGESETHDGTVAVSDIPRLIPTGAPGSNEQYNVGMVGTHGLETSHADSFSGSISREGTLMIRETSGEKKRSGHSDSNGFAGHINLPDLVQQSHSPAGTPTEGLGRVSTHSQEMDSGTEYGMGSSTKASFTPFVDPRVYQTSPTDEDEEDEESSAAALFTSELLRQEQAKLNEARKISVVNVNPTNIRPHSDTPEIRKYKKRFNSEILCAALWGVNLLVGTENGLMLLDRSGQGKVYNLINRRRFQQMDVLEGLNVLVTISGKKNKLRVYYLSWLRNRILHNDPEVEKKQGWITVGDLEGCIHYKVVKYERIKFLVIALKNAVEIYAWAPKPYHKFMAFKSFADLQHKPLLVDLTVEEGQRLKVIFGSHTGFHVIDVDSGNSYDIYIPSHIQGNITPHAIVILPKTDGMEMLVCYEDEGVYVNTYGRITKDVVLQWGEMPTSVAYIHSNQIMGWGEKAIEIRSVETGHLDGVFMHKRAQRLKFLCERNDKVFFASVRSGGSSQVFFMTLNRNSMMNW
UniProt O75914, sequence (whole entry, looked up): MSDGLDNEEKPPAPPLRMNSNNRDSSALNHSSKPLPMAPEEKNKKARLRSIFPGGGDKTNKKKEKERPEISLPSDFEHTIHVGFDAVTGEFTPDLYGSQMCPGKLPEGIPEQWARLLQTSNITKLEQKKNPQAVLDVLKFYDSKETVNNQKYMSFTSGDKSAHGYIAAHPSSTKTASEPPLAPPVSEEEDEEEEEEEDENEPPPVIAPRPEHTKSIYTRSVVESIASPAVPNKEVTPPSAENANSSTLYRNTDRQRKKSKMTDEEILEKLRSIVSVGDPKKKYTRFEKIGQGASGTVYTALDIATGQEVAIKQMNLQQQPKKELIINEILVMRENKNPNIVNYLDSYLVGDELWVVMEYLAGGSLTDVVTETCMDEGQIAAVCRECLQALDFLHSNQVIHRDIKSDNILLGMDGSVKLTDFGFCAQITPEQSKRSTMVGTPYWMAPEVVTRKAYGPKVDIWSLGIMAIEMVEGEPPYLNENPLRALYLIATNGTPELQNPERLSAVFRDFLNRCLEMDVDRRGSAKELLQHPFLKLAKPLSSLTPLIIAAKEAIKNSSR
UniProt P50750, sequence (whole entry, looked up): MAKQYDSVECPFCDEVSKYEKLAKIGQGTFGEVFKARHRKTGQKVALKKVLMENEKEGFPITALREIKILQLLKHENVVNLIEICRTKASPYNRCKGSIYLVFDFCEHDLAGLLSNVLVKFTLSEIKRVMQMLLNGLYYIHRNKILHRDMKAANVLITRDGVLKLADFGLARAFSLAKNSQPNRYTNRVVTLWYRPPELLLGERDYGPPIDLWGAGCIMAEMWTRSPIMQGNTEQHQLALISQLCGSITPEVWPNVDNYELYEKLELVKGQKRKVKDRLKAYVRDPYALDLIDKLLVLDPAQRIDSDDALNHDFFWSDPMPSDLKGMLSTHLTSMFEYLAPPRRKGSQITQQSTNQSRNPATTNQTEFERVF
UniProt P19525, sequence (whole entry, looked up): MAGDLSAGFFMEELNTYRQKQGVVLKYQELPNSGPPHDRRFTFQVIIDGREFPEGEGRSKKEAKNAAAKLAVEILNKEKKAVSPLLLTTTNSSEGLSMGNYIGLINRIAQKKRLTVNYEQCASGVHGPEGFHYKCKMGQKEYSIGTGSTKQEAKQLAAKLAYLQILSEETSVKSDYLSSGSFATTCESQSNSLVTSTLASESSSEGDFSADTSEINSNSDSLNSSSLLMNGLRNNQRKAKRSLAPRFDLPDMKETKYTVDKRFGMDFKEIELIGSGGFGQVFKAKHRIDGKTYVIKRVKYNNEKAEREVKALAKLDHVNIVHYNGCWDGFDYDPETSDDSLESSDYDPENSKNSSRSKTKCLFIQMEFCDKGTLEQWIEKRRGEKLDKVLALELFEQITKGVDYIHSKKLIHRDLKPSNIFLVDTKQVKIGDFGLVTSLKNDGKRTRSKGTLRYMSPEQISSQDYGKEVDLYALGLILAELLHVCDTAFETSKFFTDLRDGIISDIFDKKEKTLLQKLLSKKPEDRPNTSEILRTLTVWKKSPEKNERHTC

Block 1 — cell line: mouse MPNST tumor cells; method: high-content immunofluorescence imaging; item: nuclear SOX9; tested at: 10 µM; time: 12 h; setting: mean of 2 replicates; baseline: DMSO control; reading: higher = more nuclear SOX9
Structure (SMILES)	nuclear SOX9 intensity
COC(=O)c1c(C)[nH]c(C)c1C(=O)c1ccccc1Cc1ccccc1	96.8 % of DMSO
N#Cc1ccc(NCCNCC(=O)N2CCC[C@H]2C#N)nc1	88 % of DMSO
Clc1ccc(CCCOCCCN2CCCCC2)cc1	115 % of DMSO
CN(C)CCOC(c1ccccc1)c1ccccc1.Cn1c(=O)c2[nH]c(Cl)nc2n(C)c1=O	101 % of DMSO
CC(C)NCCN(C(C)C)S(=O)(=O)c1ccc(Cl)cc1Cl	135 % of DMSO
CNS(=O)(=O)Cc1ccc2[nH]cc(CCN(C)C)c2c1	101 % of DMSO and 91.9 % of DMSO and 96.2 % of DMSO
CCN(CC)CCCC(C)Nc1ccnc2cc(Cl)ccc12 (stereo not drawn)	121 % of DMSO and 116 % of DMSO and 93.2 % of DMSO

Block 2 — SMILES: O=C(Nc1ccccc1)Nc1cccc(Oc2ccc3nccn3n2)c1; tested at: 1 µM
target	method	item	setting	baseline	remaining binding [%]
Serine/threonine-protein kinase Nek3 (NEK3, Homo sapiens, UniProt P51956)	competitive binding panel	–	–	vehicle	92
TRAF2 and NCK-interacting protein kinase (TNIK, Homo sapiens, UniProt Q9UKE5)	competitive binding panel	–	–	vehicle	93
Mitogen-activated protein kinase 14 (MAPK14, Homo sapiens, UniProt Q16539)	competitive binding	–	p38-alpha	–	100
Mitogen-activated protein kinase 6 (MAPK6, Homo sapiens, UniProt Q16659)	competitive binding panel	ERK3	–	vehicle	100
Interferon-induced, double-stranded RNA-activated protein kinase (EIF2AK2, Homo sapiens, UniProt P19525)	competitive binding	–	PRKR	–	100
Cyclin-dependent kinase-like 3 (CDKL3, Homo sapiens, UniProt Q8IVW4)	competitive binding panel	–	–	vehicle	100
Myosin light chain kinase family member 4 (MYLK4, Homo sapiens, UniProt Q86YV6)	competitive binding panel	–	–	vehicle	100
cAMP-dependent protein kinase catalytic subunit PRKX (PRKX, Homo sapiens, UniProt P51817)	competitive binding panel	–	–	vehicle	100

Block 3 — read-out: enzyme activity; action: inhibitor; tested at: 0.5 µM; baseline: control
Compound: NC(=O)c1ccc(-c2nc(-c3ccc4c(c3)OCCO4)c(-c3ccccn3)[nH]2)cc1
target	remaining activity [%]
Discoidin domain-containing receptor 2 (DDR2, Homo sapiens, UniProt Q16832)	95
Serine/threonine-protein kinase PAK 3 (PAK3, Homo sapiens, UniProt O75914)	96.7
Serine/threonine-protein kinase Nek3 (NEK3, Homo sapiens, UniProt P51956)	95
Mitogen-activated protein kinase 14 (MAPK14, Homo sapiens, UniProt Q16539)	91.9
Mitogen-activated protein kinase 1 (MAPK1, Homo sapiens, UniProt P28482)	101
Cyclin-dependent kinase 9, with cyclin K (CDK9, Homo sapiens, UniProt P50750)	97.1
Dual specificity protein kinase CLK4 (CLK4, Homo sapiens, UniProt Q9HAZ1)	109
Serine/threonine-protein kinase MRCK beta (CDC42BPB, Homo sapiens, UniProt Q9Y5S2)	102
Dual specificity protein kinase CLK3 (CLK3, Homo sapiens, UniProt P49761)	112
Ribosomal protein S6 kinase alpha-4 (RPS6KA4, Homo sapiens, UniProt O75676)	97.7
Tyrosine-protein kinase TXK (TXK, Homo sapiens, UniProt P42681)	99.2
Serine/threonine-protein kinase DCLK2 (DCLK2, Homo sapiens, UniProt Q8N568)	95.5
Misshapen-like kinase 1 (MINK1, Homo sapiens, UniProt Q8N4C8)	97.1

Block 4 — read-out: ligand displacement; tested at: 10 µM
Target: Histamine H2 receptor (HRH2, Homo sapiens, UniProt P25021)
UniProt P25021, sequence (whole entry, looked up): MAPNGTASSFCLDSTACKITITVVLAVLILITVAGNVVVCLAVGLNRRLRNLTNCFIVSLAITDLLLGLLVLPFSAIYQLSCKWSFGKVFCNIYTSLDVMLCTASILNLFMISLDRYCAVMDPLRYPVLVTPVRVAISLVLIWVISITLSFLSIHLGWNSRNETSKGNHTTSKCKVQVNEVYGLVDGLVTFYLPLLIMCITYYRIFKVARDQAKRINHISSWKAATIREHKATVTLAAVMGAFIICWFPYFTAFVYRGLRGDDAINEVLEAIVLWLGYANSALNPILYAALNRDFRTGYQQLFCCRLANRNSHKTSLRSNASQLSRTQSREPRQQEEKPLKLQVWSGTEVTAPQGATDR
Compound	inhibition
Cc1c(NC(=O)c2cc(C(N)=O)nc3cc(F)ccc23)c(C(F)(F)F)nn1Cc1ccc(C#N)cc1	30.4%
O=S(=O)(NC1CCC(c2cc(F)ccc2F)(S(=O)(=O)c2ccc(Cl)cc2)CC1)C(F)(F)F (stereo not drawn)	-16.9%
C[C@H](c1ccc(F)cc1)N(Cc1cccc(C(=O)O)c1)C(=O)c1cnc2ccccc2c1	-1.14%
CN(C)C(=O)c1sc2nc(N3CCC(S(C)(=O)=O)CC3)cc(C(F)(F)F)c2c1N	-1.35%
CC1=C(C#N)C(c2ccc3[nH]nc(C)c3c2)C(C#N)=C(C)N1	12.6%
O=C(NCCCC1CCCCC1)c1ccc(CNC(=O)c2cnn(-c3ccccc3)c2C(F)(F)F)cc1	-2.78%
CN([C@@H]1CCc2c(CC(=O)O)c3ccccc3n2C1)S(=O)(=O)c1ccc(F)cc1	-1.62%
CC[C@H](CC(=O)O)n1c(=O)c2ncccc2n(Cc2cn(C)c3cc(C)cc(C)c23)c1=O	-4.71%

Excerpt of the above (block 4):
Compound	inhibition
C[C@H](c1ccc(F)cc1)N(Cc1cccc(C(=O)O)c1)C(=O)c1cnc2ccccc2c1	-1.14%
CN(C)C(=O)c1sc2nc(N3CCC(S(C)(=O)=O)CC3)cc(C(F)(F)F)c2c1N	-1.35%
CC1=C(C#N)C(c2ccc3[nH]nc(C)c3c2)C(C#N)=C(C)N1	12.6%
